Published values gathered from unrelated publications.
Several values in a cell are separate wells, animals, samples, runs or records. ± marks the error that the study gave.
SET: Protein SET (SET, Homo sapiens, UniProt Q01105)
Sequence of UniProt Q01105 (whole entry, unmodified, looked up): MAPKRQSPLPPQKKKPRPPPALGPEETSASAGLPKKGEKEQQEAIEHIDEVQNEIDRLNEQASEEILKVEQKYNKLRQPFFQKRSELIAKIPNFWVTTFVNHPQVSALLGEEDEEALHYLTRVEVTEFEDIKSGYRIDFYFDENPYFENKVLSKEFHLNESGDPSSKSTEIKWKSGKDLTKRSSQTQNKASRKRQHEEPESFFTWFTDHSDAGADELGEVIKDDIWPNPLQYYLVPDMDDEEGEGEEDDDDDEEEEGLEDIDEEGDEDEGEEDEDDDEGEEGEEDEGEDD
Aryl hydrocarbon receptor: Aryl hydrocarbon receptor (Danio rerio, UniProt Q9YGV3)
HTT: Huntingtin (HTT, Homo sapiens, UniProt P42858)
TOP2A: DNA topoisomerase 2-alpha (TOP2A, Homo sapiens, UniProt P11388)
Sequence of UniProt P11388 (whole entry, looked up): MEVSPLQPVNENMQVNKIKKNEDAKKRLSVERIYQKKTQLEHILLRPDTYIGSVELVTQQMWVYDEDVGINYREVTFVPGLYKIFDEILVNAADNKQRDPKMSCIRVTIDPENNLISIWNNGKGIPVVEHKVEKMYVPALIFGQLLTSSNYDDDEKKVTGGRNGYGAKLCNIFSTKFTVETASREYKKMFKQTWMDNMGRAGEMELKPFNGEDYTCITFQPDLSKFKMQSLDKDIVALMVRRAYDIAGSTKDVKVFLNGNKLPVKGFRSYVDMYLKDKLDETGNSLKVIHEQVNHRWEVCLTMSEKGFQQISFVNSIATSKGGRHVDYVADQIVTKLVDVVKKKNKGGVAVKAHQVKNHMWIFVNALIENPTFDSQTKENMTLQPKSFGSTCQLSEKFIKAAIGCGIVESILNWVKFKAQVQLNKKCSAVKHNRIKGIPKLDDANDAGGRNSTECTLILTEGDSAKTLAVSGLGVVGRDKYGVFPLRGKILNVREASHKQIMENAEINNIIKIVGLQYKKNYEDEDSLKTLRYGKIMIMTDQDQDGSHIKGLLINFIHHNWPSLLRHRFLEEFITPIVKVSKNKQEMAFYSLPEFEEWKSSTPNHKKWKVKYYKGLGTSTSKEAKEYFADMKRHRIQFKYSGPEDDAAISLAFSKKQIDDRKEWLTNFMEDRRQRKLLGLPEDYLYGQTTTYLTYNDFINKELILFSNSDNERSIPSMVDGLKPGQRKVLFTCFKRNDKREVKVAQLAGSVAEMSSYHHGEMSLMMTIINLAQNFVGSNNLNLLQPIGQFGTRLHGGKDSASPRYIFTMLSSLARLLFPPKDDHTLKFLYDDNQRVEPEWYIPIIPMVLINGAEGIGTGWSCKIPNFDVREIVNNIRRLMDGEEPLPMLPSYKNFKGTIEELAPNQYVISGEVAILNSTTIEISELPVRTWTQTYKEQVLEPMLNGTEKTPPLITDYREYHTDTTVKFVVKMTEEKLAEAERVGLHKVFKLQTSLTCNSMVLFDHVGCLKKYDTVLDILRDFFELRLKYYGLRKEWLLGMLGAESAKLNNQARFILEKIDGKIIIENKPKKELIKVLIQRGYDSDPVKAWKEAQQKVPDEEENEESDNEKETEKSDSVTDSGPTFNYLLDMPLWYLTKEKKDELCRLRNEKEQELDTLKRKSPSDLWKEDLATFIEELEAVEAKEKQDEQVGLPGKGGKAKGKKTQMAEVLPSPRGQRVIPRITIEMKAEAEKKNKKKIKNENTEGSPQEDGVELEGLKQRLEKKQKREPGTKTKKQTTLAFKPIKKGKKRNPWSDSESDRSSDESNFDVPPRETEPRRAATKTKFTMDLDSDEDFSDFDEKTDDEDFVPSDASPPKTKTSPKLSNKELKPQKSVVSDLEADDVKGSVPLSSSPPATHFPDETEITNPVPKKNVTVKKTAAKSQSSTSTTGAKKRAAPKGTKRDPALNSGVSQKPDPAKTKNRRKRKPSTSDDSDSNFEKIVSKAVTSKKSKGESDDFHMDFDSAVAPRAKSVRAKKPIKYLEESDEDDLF
T1: dsDNA, duplex; GAGGCCTC
Sequence of UniProt O15305 (whole entry, looked up): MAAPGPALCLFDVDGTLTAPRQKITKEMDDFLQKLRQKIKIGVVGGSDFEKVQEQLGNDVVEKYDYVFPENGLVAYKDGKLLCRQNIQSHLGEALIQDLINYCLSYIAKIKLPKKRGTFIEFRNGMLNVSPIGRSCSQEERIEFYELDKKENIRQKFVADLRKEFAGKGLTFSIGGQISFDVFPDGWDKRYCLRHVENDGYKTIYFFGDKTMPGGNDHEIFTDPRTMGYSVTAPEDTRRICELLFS
Sequence of UniProt P00519 (whole entry, unmodified, looked up): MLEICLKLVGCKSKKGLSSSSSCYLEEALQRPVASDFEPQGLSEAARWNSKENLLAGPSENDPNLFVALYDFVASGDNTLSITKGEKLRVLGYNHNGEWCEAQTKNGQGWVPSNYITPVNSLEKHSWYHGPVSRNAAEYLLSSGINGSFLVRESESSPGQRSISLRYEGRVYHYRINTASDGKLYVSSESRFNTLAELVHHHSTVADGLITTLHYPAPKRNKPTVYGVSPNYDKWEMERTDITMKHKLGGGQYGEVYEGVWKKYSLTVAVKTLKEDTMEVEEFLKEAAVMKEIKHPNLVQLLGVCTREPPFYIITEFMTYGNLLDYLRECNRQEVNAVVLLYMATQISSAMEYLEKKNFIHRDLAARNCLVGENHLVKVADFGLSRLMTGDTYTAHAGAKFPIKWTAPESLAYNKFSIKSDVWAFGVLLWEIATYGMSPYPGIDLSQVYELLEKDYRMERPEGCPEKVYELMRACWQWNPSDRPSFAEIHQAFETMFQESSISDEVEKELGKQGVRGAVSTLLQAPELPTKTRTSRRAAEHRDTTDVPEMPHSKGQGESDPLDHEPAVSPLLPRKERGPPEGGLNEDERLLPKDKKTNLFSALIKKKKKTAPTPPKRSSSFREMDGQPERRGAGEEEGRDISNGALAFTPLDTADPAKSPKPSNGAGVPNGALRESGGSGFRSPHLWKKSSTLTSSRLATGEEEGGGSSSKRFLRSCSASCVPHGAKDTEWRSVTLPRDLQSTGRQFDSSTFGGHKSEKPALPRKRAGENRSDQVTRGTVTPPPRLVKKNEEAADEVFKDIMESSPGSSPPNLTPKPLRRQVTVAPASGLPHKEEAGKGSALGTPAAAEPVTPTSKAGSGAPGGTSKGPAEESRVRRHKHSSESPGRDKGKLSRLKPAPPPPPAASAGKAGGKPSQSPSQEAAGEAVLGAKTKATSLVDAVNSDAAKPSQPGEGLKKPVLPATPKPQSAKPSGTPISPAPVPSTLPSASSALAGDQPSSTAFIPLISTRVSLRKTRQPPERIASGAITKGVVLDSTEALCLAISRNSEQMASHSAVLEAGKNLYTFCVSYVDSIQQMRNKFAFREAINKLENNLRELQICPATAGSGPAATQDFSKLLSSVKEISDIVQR
Sequence of UniProt Q16774 (whole entry, unmodified, looked up): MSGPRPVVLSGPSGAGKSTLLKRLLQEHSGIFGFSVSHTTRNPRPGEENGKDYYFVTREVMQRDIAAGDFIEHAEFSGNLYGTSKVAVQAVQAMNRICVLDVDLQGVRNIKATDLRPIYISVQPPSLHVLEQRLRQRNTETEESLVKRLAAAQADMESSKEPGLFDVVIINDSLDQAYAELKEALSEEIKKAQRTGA
Sequence of UniProt O76090 (whole entry, unmodified, looked up): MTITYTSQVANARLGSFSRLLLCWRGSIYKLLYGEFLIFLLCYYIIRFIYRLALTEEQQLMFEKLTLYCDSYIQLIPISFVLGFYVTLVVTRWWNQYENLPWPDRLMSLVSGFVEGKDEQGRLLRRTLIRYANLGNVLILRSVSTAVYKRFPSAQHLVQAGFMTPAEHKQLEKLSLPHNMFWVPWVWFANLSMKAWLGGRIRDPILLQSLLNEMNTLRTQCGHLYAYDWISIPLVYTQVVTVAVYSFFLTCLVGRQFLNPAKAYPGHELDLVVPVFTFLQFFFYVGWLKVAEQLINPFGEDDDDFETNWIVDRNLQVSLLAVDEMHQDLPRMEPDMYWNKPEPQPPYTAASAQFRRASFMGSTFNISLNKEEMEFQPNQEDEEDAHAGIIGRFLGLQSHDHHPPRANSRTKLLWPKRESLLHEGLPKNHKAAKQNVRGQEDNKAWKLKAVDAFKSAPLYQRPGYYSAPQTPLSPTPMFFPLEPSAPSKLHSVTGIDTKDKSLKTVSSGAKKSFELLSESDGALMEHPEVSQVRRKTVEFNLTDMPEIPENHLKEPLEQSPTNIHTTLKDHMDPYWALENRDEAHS
Sequence of UniProt P51575 (whole entry, unmodified, looked up): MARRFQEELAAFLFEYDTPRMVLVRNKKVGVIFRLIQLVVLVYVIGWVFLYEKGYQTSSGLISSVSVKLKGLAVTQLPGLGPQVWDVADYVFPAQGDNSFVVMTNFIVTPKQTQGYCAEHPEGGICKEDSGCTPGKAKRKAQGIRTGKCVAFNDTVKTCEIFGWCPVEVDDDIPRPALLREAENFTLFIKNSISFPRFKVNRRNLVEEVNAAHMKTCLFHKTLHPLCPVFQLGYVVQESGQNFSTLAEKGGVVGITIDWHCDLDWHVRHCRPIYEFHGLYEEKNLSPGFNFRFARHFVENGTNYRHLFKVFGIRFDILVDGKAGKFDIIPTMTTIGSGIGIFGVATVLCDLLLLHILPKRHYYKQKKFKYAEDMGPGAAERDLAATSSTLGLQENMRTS
Sequence of UniProt Q13133 (whole entry, looked up): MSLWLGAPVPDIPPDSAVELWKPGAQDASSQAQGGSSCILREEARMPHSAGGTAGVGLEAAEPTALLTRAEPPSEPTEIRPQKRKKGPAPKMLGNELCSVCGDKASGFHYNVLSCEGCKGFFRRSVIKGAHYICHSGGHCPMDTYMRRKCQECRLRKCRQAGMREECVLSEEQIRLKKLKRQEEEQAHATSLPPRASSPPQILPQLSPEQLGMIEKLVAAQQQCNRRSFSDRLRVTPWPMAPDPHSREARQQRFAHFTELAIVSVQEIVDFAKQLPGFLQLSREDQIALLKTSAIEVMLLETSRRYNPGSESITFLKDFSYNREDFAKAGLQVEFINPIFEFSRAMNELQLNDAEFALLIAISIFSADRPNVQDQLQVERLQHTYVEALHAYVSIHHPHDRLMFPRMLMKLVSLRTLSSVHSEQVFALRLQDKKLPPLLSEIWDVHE

Structure (SMILES)	target	test	system	conditions	how to read	measurement	value
COc1ccc(NC(=O)c2cccc(C)c2I)cc1	GABA-A receptor; alpha-1/beta-2/gamma-2 (Rattus norvegicus, UniProt P18508+P62813+P63138)	membrane potential, agonist, QP-DHM primary screen	HEK293 expressing GABAA	10 µM	direction not given	normalized score	0.46
N#Cc1ccc(C[C@@H](NC(=O)c2cc3cc([N+](=O)[O-])ccc3[nH]2)C(=O)N2CCc3ccccc32)cc1	N-formyl peptide receptor 2 (FPR2, Homo sapiens, UniProt P25090)	cell-based	–	concentration not given	–	activity	inactive
CCCCCCCCCCCCC/C=C/[C@@H](O)[C@H](CO)NC(=O)CCCCCCCCCCCCCCCCC	SET	lipid binding, GFP pull-down LC-MS/MS	A549 overexpressing GFP-tagged protein	unit not given	baseline: vector-transfected cells	bound endogenous lipid	35.9
CC[C@H](C)[C@@H]1NC(=O)[C@H](C)NC(=O)[C@H]([C@@H](C)CC)NC(=O)[C@H](CCC(N)=O)NC(=O)[C@H](C)NC(=O)[C@H](CCCNC(=N)N)NC(=O)[C@H](C(C)C)NC(=O)[C@H](CC(C)C)NC(=O)[C@H](CCC(=O)O)NC(=O)[C@H](CCCNC(=N)N)NC(=O)CNC(=O)[C@@H](NC(=O)[C@H](CC(C)C)NC(=O)[C@H](CCCCN)NC(=O)[C@@H](NC(=O)[C@@H](NC(=O)[C@H](CCC(=O)O)NC(=O)[C@H](CCC(=O)O)NC(=O)[C@H](CCSC)NC(=O)[C@H](Cc2c[nH]c3ccccc23)NC(=O)[C@H](CO)NC(=O)[C@@H](N)CC(=O)O)C(C)C)[C@@H](C)CC)CSSC[C@@H]2NC(=O)[C@@H](NC(=O)[C@H](CCCCN)NC(=O)[C@H](CC(N)=O)NC(=O)[C@H](C)NC(=O)[C@H](CC(C)C)NC(=O)[C@H](C)NC(=O)[C@H](CO)NC(=O)[C@H](Cc3ccc(O)cc3)NC(=O)[C@H](CC(C)C)NC(=O)[C@H](CCC(N)=O)NC(=O)c3ccc(-c4c5ccc(=[N+](C)C)cc-5oc5cc(N(C)C)ccc45)c(C(=O)[O-])c3)CSSC[C@H](NC(=O)CNC(=O)[C@H](C(C)C)NC(=O)[C@H](Cc3c[nH]cn3)NC2=O)C(=O)N[C@@H]([C@@H](C)O)C(=O)N[C@@H](CCCCN)C(=O)N[C@@H](CCCNC(=N)N)C(=O)N[C@@H](CO)C(=O)N[C@@H](CC(C)C)C(=O)N[C@@H](C)C(=O)N[C@@H](CCCNC(=N)N)C(=O)N[C@@H](Cc2ccccc2)C(=O)N[C@H](C(=O)O)CSSC[C@@H](C(=O)NCC(=O)N[C@@H](CCSC)C(=O)N[C@@H](CO)C(=O)N[C@H](C(=O)N[C@@H](Cc2c[nH]c3ccccc23)C(=O)N[C@@H](CO)C(=O)O)[C@@H](C)O)NC1=O	Relaxin receptor 1 (RXFP1, Homo sapiens, UniProt Q9HBX9)	binding, NanoBRET	–	concentration not given, together with: relaxin 100 nM	–	fast dissociation fraction	17.7%
O=C(COP(=O)(O)O)[C@@H](O)[C@H](O)[C@H](O)COP(=O)(O)O	Phosphomannomutase 2 (PMM2, Homo sapiens, UniProt O15305)	–	–	0.5 mM, unit not given	baseline: activity at 0 mM set to 100	enzyme activity	82.9 and 89.7 and 93.9
c1ccc2c(c1)-c1cccc3c1c-2cc1ccccc13	Aryl hydrocarbon receptor	reporter gene, agonist, luciferase reporter	ZF-4	4.572 µM	baseline: vehicle control	fold change	2.63
CC1(C)CC2(C)OC(=O)NC2(C)c2ccccc21 (stereo not shown)	HTT	binding, affinity selection mass spectrometry	–	–	baseline: other proteins in batch	log fold enrichment	0.243
CC1(C)NC(=O)c2[nH]c3c(Cl)c(Cl)ccc3c2C1C#N (stereo not shown)	Ribosomal protein S6 kinase alpha-2 (RPS6KA2, Homo sapiens, UniProt Q15349)	thermal shift	–	10 µM, 2 µM protein	higher = stronger binding	ΔTm	0.9 °C
CN1CCN(c2cc(-c3ccncc3)c(-c3ccc4ccccc4c3)nn2)CC1	C-X-C chemokine receptor type 5 (CXCR5, Homo sapiens, UniProt P32302)	agonist, FLIPR	–	12.5 µM	–	activation	-1.7%
CN(CCCCCCNC(=O)CNc1cccc2c1C(=O)N(C1CCC(=O)NC1=O)C2=O)Cc1cn(Cc2ccc(C(=O)NO)cc2)c2ccccc12.O=C(O)C(F)(F)F (stereo not shown)	Protein deacetylase HDAC6 (HDAC6, Homo sapiens, UniProt Q9UBN7)	degrader, western blot	MM1.S	5 µM, 24 h	–	degradation	99%
CCCCCCCCCCCCC/C=C/[C@@H](O)[C@H](CO)NC(=O)CCCCCCCCCCCCC	Protein SET (SET, Homo sapiens, UniProt Q01105, K222D)	lipid binding, GFP pull-down LC-MS/MS	A549 overexpressing GFP-tagged protein	unit not given	baseline: vector-transfected cells	bound endogenous lipid	6.6
O=C1C=CC(=O)c2c1ccc1ccccc21	Aryl hydrocarbon receptor	reporter gene, agonist, luciferase reporter	ZF-4	1.524 µM	baseline: vehicle control	fold change	1.51
O=c1nc(SCc2cc(F)cc(C(F)(F)F)c2)nc(SCc2ccc3nc(Cl)ccc3c2)[nH]1	TOP2A	DNA cleavage	–	31.25 µM, together with: etoposide 50 µM	–	linear DNA	10.5%
COC(=O)[C@H](Cc1c[nH]c2c(C)cccc12)NC(=O)[C@@H](OC)[C@@H]1Cc2cc3cc(O[C@H]4C[C@@H](O[C@H]5C[C@@H](O)[C@H](O)[C@@H](C)O5)[C@H](O)[C@@H](C)O4)c(C)c(O)c3c(O)c2C(=O)[C@H]1O[C@H]1C[C@@H](O[C@H]2C[C@@H](O[C@H]3C[C@](C)(O)[C@H](O)[C@@H](C)O3)[C@@H](O)[C@@H](C)O2)[C@H](O)[C@@H](C)O1	T1, dsDNA, duplex	intrinsic fluorescence titration	–	apparent, tight-binding limit	–	Kd	2.6 µM
CC[C@@H]1[C@H](F)C(=O)N[C@@H]1COc1nccc2cc(C(N)=O)c(OC)cc12	Serine/threonine-protein kinase 16 (STK16, Homo sapiens, UniProt O75716)	ATP-site probe binding, ActivX profiling	THP-1 cell lysate	0.04 mM, Lys1 site	–	inhibition	27.8%
C[C@H](CCC(C)(C)O)[C@H]1CC[C@H]2[C@@H]3CC=C4C[C@@](C)(O)CC[C@]4(C)[C@H]3CC[C@]12C	Glutamate NMDA receptor; GRIN1/GRIN2B (GRIN1/GRIN2B, Homo sapiens, UniProt Q05586+Q13224, N650A)	positive allosteric modulator, two-electrode voltage clamp	Xenopus oocytes expressing GluN1-N650A	10 µM, 0.02% cremophor, together with: 100 µM glutamate and glycine	baseline: without compound	current response	271 ± 16%
CCCCc1nc2c(s1)c(N)nc1ccccc12	Toll-like receptor 8 (TLR8, Homo sapiens, UniProt Q9NR97)	reporter gene, agonist, NF-κB reporter	HEK-Blue TLR8	–	–	EC50	inactive
Oc1ccc(/C=C/c2cc(O)cc(O)c2)cc1	O-methyltransferase (Sorghum bicolor, UniProt A0A1B6PFV1)	ITC	–	endothermic site, two-site model, together with: SFG	–	∆H	2.63 kcal/mol
O=C(Nc1cccc2[nH]ccc12)c1ccc(C(F)(F)F)cc1	Alpha-synuclein (SNCA, Homo sapiens, UniProt P37840)	ThT kinetics	–	concentration not given, together with: SNCA 2 µM	–	fibril formation	inhibited
c1cnn2ncc(-c3ccnc(N4CCC45COC5)n3)c2c1	Tyrosine-protein kinase ABL1 (ABL1, Homo sapiens, UniProt P00519, F317L)	KINOMEscan	–	1 µM	baseline: control	remaining binding	55%
Nc1ccc2ccc3cccc4ccc1c2c34	Aryl hydrocarbon receptor	reporter gene, agonist, luciferase reporter	ZF-4	41.15 µM	baseline: vehicle control	fold change	1.43
Cc1cc2ccccc2c2ccccc12	Aryl hydrocarbon receptor (AHR, Homo sapiens, UniProt P35869)	reporter gene, agonist, yeast LacZ reporter	Saccharomyces cerevisiae	–	–	maximum response	126 LacZ units

Structure (SMILES)	target	test	system	conditions	how to read	measurement	value
O=C(O)c1ccc(Nc2ncc3c(n2)-c2ccc(Cl)cc2C(c2c(F)cccc2F)=NC3)cc1	ROCK-II(r)	kinase activity	–	1 µM	–	remaining activity	92%
CN(C)c1nccc(-c2cnn3ncccc23)n1	Tyrosine-protein kinase ABL1 (ABL1, Homo sapiens, UniProt P00519, H396P)	KINOMEscan	–	1 µM	baseline: control	remaining binding	100%
Nc1ccc(C(=O)O)cc1	BEST1, with wild-type BEST1 (Homo sapiens, UniProt O76090, Q293K)	ion current, whole-cell patch clamp	HEK293 co-expressing mutant and wild-type	concentration not given, voltage -60 mV	–	current density	-2.45 pA/pF and -24.1 pA/pF and -8.93 pA/pF and -6.92 pA/pF and -9.55 pA/pF and -7.26 pA/pF
CC1CCCN(C(=O)c2cc3ncccn3n2)C1 (stereo not shown)	HTT	binding, affinity selection mass spectrometry	–	–	baseline: other proteins in batch	fold enrichment	1.04
CCN1CCC[C@H]1CNC(=O)c1c(O)c(Cl)cc(Cl)c1OC	Probable G-protein coupled receptor 25 (GPR25, Homo sapiens, UniProt O00155)	β-arrestin recruitment, TANGO luminescence, item: GPR25	–	concentration not given	baseline: basal luminescence	log2 fold change	-0.036
Cc1nc(CSc2nc(SCc3ccc(C(C)C)cc3)nc(=O)[nH]2)cs1	TOP2A	DNA cleavage	–	15.6 µM, replicate 2	–	linear DNA	0%
C=CC(=O)N1CCC[C@@H](n2nc(-c3ccc(Oc4ccccc4)cc3)c3c(N)ncnc32)C1	Ephrin type-B receptor 3 (EPHB3, Homo sapiens, UniProt P54753)	–	–	0.1 µM	–	remaining activity	122%
CCC(=O)NS(=O)(=O)c1ccc(-c2c(-c3ccccc3)noc2C)cc1	Oxysterols receptor LXR-alpha (NR1H3, Homo sapiens, UniProt Q13133)	reporter gene, Gal4 hybrid reporter	–	50 µM	baseline: vehicle	activation	0.95 fold
Nc1nc2c(ncn2[C@@H]2O[C@H](COP(=O)(O)O)[C@@H](O)[C@H]2O)c(=O)[nH]1	GUK1 (Homo sapiens, UniProt Q16774, S37P)	enzyme activity, NADH-coupled	–	250 µM	–	reaction rate	1.64 s⁻¹ and 0.884 s⁻¹ and 1.22 s⁻¹
CCOC(=O)C(C)c1n[nH]c2nc(N)[nH]c(=O)c2c1=O (stereo not shown)	Dihydropteroate synthase (folP, Bacteria, UniProt P0AC13)	CETSA HiBiT	Escherichia coli, whole cells	concentration not given	baseline: DMSO	melting temperature shift	1.65 °C
O=C(COP(=O)(O)O)[C@@H](O)[C@H](O)[C@H](O)COP(=O)(O)O	Pyruvate kinase PKM (PKM, Homo sapiens, UniProt P14618)	pyruvate kinase activity, activator	RKO cell lysate	together with: AIM	–	concentration reversing inhibition completely	394 ± 122 nM
NCCCS(=O)(=O)O	Sodium- and chloride-dependent taurine transporter (SLC6A6, Homo sapiens, UniProt P31641, Y138A)	binding, microscale thermophoresis	–	32.7 nM, fitted curve	higher = more binding	fraction bound	0.000296
Cc1ccc(NC(=O)/C=C/c2cccs2)cc1	Nicotinic acetylcholine receptor alpha9/alpha10 (Rattus norvegicus, UniProt P43144+Q9JLB5)	positive allosteric modulator	rat α9α10 expressing cells	together with: ACh 10 µM	–	potentiation EC50	inactive
CC[C@H](C)[C@H](NC(=O)[C@H](CCCNC(=N)N)NC(=O)[C@H](Cc1c[nH]cn1)NC(=O)[C@H](CCCNC(=N)N)NC(=O)[C@H](CC(=O)O)NC(=O)[C@H](CC(=O)O)NC(=O)[C@@H](NC(=O)[C@H](CC(=O)O)NC(=O)[C@@H]1CCCN1C(=O)[C@@H](N)CC(C)C)[C@@H](C)O)C(=O)N[C@@H](CCC(=O)O)C(=O)N[C@@H](CCC(=O)O)C(=O)N[C@@H](CCCCN)C(=O)N[C@@H](CCCNC(=N)N)C(=O)N[C@@H](CCCCN)C(=O)N[C@@H](CCCNC(=N)N)C(=O)N[C@H](C(=O)N[C@@H](Cc1ccc(O)cc1)C(=O)N[C@@H](CCC(=O)O)C(=O)N[C@H](C(=O)N[C@@H](Cc1ccccc1)C(=O)N[C@@H](CCCCN)C(=O)N[C@@H](CO)C(=O)N[C@H](C(=O)N[C@@H](CCSC)C(=O)N[C@@H](CCCCN)C(=O)N[C@@H](CCCCN)C(=O)N[C@@H](CO)C(=O)N1CCC[C@H]1C(=O)N[C@@H](Cc1ccccc1)C(=O)N[C@@H](CC(N)=O)C(=O)NCC(=O)N1CCC[C@H]1C(=O)O)[C@@H](C)CC)[C@@H](C)O)[C@@H](C)O	NF-kappa-B inhibitor alpha (Homo sapiens, UniProt P25963)	binding, ITC	–	pH 7.5, 293 K, 50 mM NaCl	–	ΔH	-3.7 ± 0.03 kcal/mol
C[C@@H]1CCN(c2nccc(-c3cnn4ncccc34)n2)C1	Tyrosine-protein kinase ABL1 (ABL1, Homo sapiens, UniProt P00519, T315I)	KINOMEscan	–	1 µM	–	remaining binding	60% and 100%
CCCCCCCCCCCCC/C=C/[C@@H](O)[C@H](CO)NC(=O)CCCCCCCCCCCCCCCCCCCCCCC	SET	lipid binding, GFP pull-down LC-MS/MS	A549 overexpressing GFP-tagged protein	–	baseline: eluate plus flow-through	lipid fraction bound	5.3%
O=C1C[C@@H](c2ccccc2)Oc2cc(O)cc(O)c21	Aryl hydrocarbon receptor	reporter gene, agonist, luciferase reporter	ZF-4	41.15 µM	baseline: vehicle control	fold change	1.38
Nc1cccc2c1C(=O)N(C1CCC(=O)NC1=O)C2=O (stereo not shown)	Sal-like protein 4 (SALL4, Homo sapiens, UniProt Q9UJQ4)	degrader	C33A	–	–	Dmax	68 ± 6%
CCc1cnn2c(NCc3ccc[n+]([O-])c3)cc(N3CCCC[C@H]3CCO)nc12	Bromodomain-containing protein 4 (BRD4, Homo sapiens, UniProt O60885)	19F NMR, item: tyrosine 65	–	24 µM	baseline: free protein	chemical shift change	-0.002 ppm
COc1cc(C#CC(=O)c2ccccc2OC)ccc1O	HTH-type quorum-sensing regulator RhlR (rhlR, Pseudomonas aeruginosa, UniProt P54292)	receptor binding	–	concentration not given, 1.5 h, together with: BHL at 1:1 ratio	baseline: control	binding	52%
Nc1ncnc2c1ncn2[C@@H]1O[C@H](COP(=O)(O)CP(=O)(O)OP(=O)(O)O)[C@@H](O)[C@H]1O	P2X purinoceptor 1 (P2RX1, Homo sapiens, UniProt P51575, K136A)	saturation binding	HEK293	13 nM	–	specific binding	906 CCPM and 739 CCPM
